Measured values of several laboratories.
Values joined by “and” are separate records of one study, mostly repeats; a detail may differ. ± marks the error that the study gave. Values after ≈ are worked out from the molar mass of the structure shown.

`CCC(C)(O)c1ccc(OCCc2cccc(F)c2)c(C(N)=O)c1` (centres unmarked) has a selectivity index of 2 (Mycobacterium tuberculosis; H37Rv-LP; relative to: HepG2 CC50 over Mtb IC90).
For `CC(c1cccnc1)n1c(=S)[nH]c2ccc(Cl)cc2c1=O` (centres unmarked), “maximum growth inhibition” read ~72% (Mycobacterium tuberculosis; intracellular growth; THP-1 macrophages, H37Rv-GFP).
For `Cc1cscc1-c1ccc(OCCc2cc(F)cc(F)c2)c(C(N)=O)c1`, the selectivity index was 18 (Mycobacterium tuberculosis; H37Rv-LP; relative to: HepG2 CC50 over Mtb IC90).
For `COc1ccc(-c2cc(C(F)(F)F)c3c(N)c(C(=O)Nc4cc(C)cc(C)c4)sc3n2)cc1`, IC90 read “inactive” (Mycobacterium tuberculosis; H37Rv wild type; 120 h).
With `Cc1ccc(OCCc2cc(F)cc(F)c2)c(C(=O)NC(C)C)c1` the selectivity index was 2 (Mycobacterium tuberculosis; H37Rv-LP; relative to: HepG2 CC50 over Mtb IC90).
For `COc1ccc(-c2cc(C(F)(F)F)c3c(N)c(C(=O)NCCSC)sc3n2)cc1`, the IC50 was 17 ± 9 µM (Mycobacterium tuberculosis; growth inhibition; H37Rv LepB under-expressing).
`Cc1nc(-c2ccc(OCCc3cccc(F)c3)c(C(N)=O)c2)cs1` gave an IC90 of 3.1 ± 0.1 µM (Mycobacterium tuberculosis; growth; H37Rv-LP; 120 h).
For `O=c1c2cc(Cl)c(CF)cc2[nH]c(=S)n1Cc1cccnc1`, the MIC90 was 1.75 µM (≈ 0.588 µg/mL) (Mycobacterium tuberculosis; PptT conditional knockdown).
`COc1ccc(-c2cc(C(F)(F)F)c3c(N)c(C(=O)Nc4cccc(C)c4C)sc3n2)cc1` gave an IC50 of 0.58 ± 0.2 µM (Mycobacterium tuberculosis; growth inhibition; H37Rv LepB under-expressing).
`N#Cc1cncc(Cn2c(=S)[nH]c3ccc(Cl)cc3c2=O)c1` has an MIC90 of 0.39 µM (≈ 0.128 µg/mL) (Mycobacterium tuberculosis; PptT conditional knockdown).
`COc1ccc(-c2cc(C(F)(F)F)c3c(N)c(C(=O)Nc4cc(C)ccc4C)sc3n2)cc1` — result for IC90: “inactive” (Mycobacterium tuberculosis; H37Rv wild type; 120 h).
The selectivity index of `CNC(=O)c1cc(C)ccc1OCCc1ccc(C2CC2)cc1` is reported as 278 (Mycobacterium tuberculosis; H37Rv-LP; relative to: HepG2 CC50 over Mtb IC90).
With `O=c1c2cc(Cl)ncc2[nH]c(=S)n1Cc1cccnc1` the MIC90 was 0.35 µM (≈ 0.107 µg/mL) (Mycobacterium tuberculosis; PptT conditional knockdown).
The MIC of `Cc1ncc([N+](=O)[O-])n1CCO` is reported as > 256 µg/mL (Burkholderia cepacia; 6349).
With `CN(C)C(=O)c1sc2ncccc2c1N` the IC50 was > 100 µM (Mycobacterium tuberculosis; growth inhibition; H37Rv LepB under-expressing).
`CN(C)C(=O)OCc1cc2[nH]c(=S)n(Cc3cncnc3)c(=O)c2cc1Cl` gave an MIC90 of 6.16 µM (≈ 2.5 µg/mL) (Mycobacterium tuberculosis; PptT conditional knockdown).
`Cc1ccc(NCCc2cccc(F)c2)c(C(N)=O)c1` has a selectivity index of 0.6 (Mycobacterium tuberculosis; H37Rv-LP; relative to: HepG2 CC50 over Mtb IC90).
`COc1ccc(-c2cc(C(F)(F)F)c3c(N)c(C(=O)Nc4cccc(C)c4OC)sc3n2)cc1` has an IC50 of > 100 µM (Mycobacterium tuberculosis; growth inhibition; H37Rv LepB under-expressing).
With `OC(Cn1cncn1)(Cn1cncn1)c1ccc(F)cc1F` the OD600 was 0.969 and 0.989 and 0.965 (Saccharomyces cerevisiae; cell growth; Pdr5 deleted, Cdr1 overexpressed; 2^3.322 µg/mL).
`NC(=S)c1cncc(Cn2c(=S)[nH]c3cc(CO)c(Cl)cc3c2=O)c1` gave an MIC90 of 2.76 µM (≈ 1.08 µg/mL) (Mycobacterium tuberculosis; PptT conditional knockdown).
With `NC(=O)c1cc(-c2ccoc2)cc(F)c1OCCc1cccc(F)c1` the selectivity index was 2 (Mycobacterium tuberculosis; H37Rv-LP; relative to: HepG2 CC50 over Mtb IC90).
`N#Cc1cc2c(=O)n(Cc3cccnc3)c(=S)[nH]c2cn1` has an MIC90 of 13.4 µM (≈ 3.96 µg/mL) (Mycobacterium tuberculosis; PptT conditional knockdown).
The IC50 of `COc1ccc(-c2cc(C(F)(F)F)c3c(N)c(C(=O)NC4CC5(C4)CN(C(=O)OC(C)(C)C)C5)sc3n2)cc1` is reported as > 50 µM (Mycobacterium tuberculosis; growth inhibition; H37Rv LepB under-expressing).
`O=c1c2cc(Cl)c(CO)cc2[nH]c(=S)n1Cc1cncnc1` has an MIC90 of 1.62 µM (≈ 0.542 µg/mL) (Mycobacterium tuberculosis; PptT conditional knockdown).
For `CC(O)c1ccc(OCCc2cccc(F)c2)c(C(N)=O)c1` (centres unmarked), the IC90 was 6.3 ± 0.59 µM (Mycobacterium tuberculosis; growth; H37Rv-LP; 120 h).
`COc1ccc(-c2cc(C(F)(F)F)c3c(N)c(C(=O)NCc4ccccc4)sc3n2)cc1` has an IC50 of > 100 µM (Mycobacterium tuberculosis; growth inhibition; H37Rv LepB under-expressing).
